Assay results of several laboratories.
Compare with care: the assays were run in different laboratories. “And” joins repeats or separate records; there may be more than shown. ± gives the spread as reported.
EPHX2: Bifunctional epoxide hydrolase 2 (EPHX2, Homo sapiens, UniProt P34913)
Chain of UniProt P34913 (whole entry, looked up): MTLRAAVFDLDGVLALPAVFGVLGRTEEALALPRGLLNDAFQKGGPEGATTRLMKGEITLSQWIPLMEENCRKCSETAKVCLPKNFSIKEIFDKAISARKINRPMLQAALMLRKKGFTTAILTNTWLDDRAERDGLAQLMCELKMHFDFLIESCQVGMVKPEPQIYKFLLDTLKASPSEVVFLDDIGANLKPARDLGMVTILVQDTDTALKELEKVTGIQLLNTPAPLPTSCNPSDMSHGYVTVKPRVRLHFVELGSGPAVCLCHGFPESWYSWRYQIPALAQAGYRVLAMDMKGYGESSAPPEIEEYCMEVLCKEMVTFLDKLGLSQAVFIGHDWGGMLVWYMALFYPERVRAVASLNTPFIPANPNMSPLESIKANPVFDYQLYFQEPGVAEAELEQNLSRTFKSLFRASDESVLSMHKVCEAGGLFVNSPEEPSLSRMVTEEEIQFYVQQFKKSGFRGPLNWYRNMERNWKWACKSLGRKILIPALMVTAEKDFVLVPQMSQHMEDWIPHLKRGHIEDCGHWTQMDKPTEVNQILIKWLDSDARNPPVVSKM
MGLL: Monoglyceride lipase (MGLL, Homo sapiens, UniProt Q99685)
Chain of UniProt Q99685 (whole entry, looked up): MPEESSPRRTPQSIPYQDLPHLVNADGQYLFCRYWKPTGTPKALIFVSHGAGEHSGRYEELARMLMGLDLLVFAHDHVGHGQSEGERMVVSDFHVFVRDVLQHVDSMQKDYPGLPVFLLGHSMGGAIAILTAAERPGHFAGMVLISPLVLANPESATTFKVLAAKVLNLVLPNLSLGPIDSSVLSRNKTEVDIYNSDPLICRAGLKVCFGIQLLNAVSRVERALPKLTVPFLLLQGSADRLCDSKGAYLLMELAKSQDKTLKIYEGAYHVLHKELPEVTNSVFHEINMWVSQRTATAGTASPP
TRPM4: Transient receptor potential cation channel subfamily M member 4 (TRPM4, Homo sapiens, UniProt Q8TD43)
Chain of UniProt Q8TD43 (whole entry, looked up): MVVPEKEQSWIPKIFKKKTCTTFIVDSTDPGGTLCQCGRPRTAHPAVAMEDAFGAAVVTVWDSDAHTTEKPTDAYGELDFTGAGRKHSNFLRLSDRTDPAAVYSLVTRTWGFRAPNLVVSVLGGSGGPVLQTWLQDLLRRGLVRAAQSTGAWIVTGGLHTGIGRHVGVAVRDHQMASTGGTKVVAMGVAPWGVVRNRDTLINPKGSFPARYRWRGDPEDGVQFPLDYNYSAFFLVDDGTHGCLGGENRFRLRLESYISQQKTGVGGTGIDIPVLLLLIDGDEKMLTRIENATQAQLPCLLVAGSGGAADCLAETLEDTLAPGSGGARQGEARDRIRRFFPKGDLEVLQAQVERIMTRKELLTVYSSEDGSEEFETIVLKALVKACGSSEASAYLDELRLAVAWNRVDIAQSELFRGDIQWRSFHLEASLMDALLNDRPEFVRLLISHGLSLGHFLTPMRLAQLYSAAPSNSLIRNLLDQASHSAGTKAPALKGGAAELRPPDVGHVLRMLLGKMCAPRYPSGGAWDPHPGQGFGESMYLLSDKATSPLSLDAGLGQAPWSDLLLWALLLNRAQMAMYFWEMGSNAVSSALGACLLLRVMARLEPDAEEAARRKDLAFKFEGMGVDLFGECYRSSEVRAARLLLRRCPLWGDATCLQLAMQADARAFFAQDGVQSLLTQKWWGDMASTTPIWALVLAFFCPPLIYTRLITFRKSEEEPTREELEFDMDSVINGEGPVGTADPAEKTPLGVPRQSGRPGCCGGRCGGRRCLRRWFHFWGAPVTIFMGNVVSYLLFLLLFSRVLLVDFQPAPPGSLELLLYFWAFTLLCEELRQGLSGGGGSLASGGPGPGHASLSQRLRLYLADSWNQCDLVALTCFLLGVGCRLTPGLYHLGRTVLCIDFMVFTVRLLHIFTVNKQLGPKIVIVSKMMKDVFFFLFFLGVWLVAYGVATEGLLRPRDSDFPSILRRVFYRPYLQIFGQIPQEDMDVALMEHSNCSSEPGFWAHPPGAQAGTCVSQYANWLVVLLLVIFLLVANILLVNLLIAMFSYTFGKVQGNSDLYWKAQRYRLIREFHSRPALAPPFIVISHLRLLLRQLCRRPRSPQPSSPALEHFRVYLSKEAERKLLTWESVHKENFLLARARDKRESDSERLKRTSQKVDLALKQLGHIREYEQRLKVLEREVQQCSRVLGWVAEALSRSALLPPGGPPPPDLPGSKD
CACNA1I: Voltage-dependent T-type calcium channel subunit alpha-1I (CACNA1I, Homo sapiens, UniProt Q9P0X4)
Tpo: Thyroid peroxidase (Tpo, Rattus norvegicus, UniProt P14650)
Chain of UniProt P14650 (whole entry, looked up): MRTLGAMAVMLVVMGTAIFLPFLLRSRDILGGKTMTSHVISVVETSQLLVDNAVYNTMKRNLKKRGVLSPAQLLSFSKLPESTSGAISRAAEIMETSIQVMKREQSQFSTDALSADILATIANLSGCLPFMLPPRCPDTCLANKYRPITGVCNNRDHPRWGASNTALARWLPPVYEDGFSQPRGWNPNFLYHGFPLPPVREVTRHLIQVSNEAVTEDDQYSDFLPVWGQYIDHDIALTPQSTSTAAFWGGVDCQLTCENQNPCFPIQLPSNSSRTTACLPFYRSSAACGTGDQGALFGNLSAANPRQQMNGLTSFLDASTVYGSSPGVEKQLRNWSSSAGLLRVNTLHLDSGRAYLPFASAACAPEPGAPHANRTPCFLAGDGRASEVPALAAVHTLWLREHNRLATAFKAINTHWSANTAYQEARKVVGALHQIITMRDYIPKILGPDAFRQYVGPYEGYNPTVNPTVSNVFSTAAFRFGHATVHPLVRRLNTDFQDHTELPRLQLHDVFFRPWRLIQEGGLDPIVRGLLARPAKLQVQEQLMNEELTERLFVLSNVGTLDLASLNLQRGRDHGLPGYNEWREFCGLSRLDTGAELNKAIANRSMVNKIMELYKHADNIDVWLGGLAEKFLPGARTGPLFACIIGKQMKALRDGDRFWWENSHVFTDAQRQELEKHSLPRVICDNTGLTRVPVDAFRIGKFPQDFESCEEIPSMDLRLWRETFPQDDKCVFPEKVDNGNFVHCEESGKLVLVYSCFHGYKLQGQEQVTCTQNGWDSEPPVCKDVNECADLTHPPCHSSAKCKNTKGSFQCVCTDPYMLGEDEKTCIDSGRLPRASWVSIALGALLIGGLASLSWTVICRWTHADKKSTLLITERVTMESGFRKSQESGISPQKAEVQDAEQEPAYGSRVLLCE
gag-pol integrase: Gag-Pol polyprotein, integrase (gag-pol, Human immunodeficiency virus 1, UniProt P12497)
Melanocortin receptor 5: Melanocortin receptor 5 (Mus musculus, UniProt P41149)
Chain of UniProt P41149 (whole entry, looked up): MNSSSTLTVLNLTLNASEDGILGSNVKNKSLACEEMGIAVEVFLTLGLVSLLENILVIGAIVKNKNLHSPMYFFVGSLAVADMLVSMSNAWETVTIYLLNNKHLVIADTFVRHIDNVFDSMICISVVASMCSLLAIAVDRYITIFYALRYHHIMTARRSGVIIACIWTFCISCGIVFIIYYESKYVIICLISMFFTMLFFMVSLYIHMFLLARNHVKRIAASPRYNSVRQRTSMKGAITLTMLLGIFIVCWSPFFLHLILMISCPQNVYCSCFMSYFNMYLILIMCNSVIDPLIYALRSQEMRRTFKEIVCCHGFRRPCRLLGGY
Chain of UniProt P62344 (whole entry, looked up): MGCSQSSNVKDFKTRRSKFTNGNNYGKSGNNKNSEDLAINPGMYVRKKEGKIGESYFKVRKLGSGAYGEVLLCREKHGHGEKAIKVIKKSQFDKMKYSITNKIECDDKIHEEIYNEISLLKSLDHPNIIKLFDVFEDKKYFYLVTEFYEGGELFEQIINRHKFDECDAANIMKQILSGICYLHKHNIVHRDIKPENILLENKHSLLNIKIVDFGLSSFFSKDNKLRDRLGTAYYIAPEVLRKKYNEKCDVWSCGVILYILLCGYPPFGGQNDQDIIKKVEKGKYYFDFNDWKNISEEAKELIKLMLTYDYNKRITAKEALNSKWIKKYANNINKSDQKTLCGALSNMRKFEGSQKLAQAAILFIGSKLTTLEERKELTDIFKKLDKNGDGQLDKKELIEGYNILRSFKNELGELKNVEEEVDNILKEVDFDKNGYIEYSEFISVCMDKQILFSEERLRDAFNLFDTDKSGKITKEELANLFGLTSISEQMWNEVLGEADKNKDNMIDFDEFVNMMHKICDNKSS
Chain of UniProt Q8WWA0 (whole entry, looked up): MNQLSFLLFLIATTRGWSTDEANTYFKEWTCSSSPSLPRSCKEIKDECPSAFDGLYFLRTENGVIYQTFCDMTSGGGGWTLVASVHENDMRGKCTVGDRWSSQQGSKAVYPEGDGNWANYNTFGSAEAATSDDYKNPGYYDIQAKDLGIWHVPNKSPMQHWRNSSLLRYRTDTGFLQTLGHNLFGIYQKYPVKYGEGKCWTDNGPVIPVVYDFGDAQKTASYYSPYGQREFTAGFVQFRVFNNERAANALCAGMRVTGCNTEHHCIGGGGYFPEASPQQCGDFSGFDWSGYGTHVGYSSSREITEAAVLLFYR
Chain of UniProt Q80W57 (whole entry, looked up): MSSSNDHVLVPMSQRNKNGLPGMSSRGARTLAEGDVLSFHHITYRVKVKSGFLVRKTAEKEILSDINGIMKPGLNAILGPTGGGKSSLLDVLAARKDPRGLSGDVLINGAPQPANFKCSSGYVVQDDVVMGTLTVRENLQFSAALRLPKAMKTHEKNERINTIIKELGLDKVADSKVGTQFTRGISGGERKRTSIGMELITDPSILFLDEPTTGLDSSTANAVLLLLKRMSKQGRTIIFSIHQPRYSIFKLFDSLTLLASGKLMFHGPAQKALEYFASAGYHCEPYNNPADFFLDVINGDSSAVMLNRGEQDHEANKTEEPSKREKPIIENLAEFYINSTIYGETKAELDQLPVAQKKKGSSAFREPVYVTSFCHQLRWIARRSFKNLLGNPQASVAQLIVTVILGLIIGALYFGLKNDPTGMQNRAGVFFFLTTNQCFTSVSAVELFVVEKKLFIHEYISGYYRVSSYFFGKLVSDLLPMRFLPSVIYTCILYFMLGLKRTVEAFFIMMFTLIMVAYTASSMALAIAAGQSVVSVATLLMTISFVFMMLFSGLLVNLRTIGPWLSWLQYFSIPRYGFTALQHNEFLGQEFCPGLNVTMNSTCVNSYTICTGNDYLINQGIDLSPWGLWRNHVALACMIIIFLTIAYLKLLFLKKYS

C[C@]12CC3CC(Nc4c(Nc5ccc(C(=O)N6CCC[C@H](C(=O)NCCCCCC(=O)NO)C6)cc5)c(=O)c4=O)(C1)C[C@@](C)(C3)C2
IC50 (EPHX2; enzyme activity, inhibitor, fluorescence): 0.41 µM

O=C(NNC(=O)c1ccc(CNS(=O)(=O)c2ccc(F)c(Cl)c2)cc1)c1ccccc1
IC50 (Glutamate NMDA receptor; Grin1/Grin2a (Grin1/Grin2a, Rattus norvegicus, UniProt P35439+Q00959, E790M); ion current, two-electrode voltage clamp; oocytes): 0.6 µM

CCN(CC)CC1CCN(c2ncc3ncnc(Nc4ccc(F)c(Cl)c4)c3n2)CC1
IC50 (SRC (Homo sapiens, UniProt P12931); enzyme activity, inhibitor, ADP detection): > 10 µM

COc1ccc(-c2cn(CC3CC3)c3ncnc(N)c23)cc1OC
IC50 (CDPK1 (Plasmodium falciparum, UniProt P62344); enzyme activity, inhibitor): 0.589 µM and 0.588 µM

Cc1ccc2c(ccn2CC2CCN(C(=O)OC(C(F)(F)F)C(F)(F)F)CC2)c1
IC50 (MGLL; enzyme activity, inhibitor): 0.9 µM

O=C(CCCCCCNC(=O)[C@H]1CCCN(C(=O)c2ccc(NC(=O)Nc3ccc(OC(F)(F)F)c(F)c3)c(F)c2)C1)NO
IC50 (EPHX2; enzyme activity, inhibitor, fluorescence): 0.0002 µM

O=C(COc1cccc2c1CCCC2)Nc1cc(Cl)ccc1C(=O)O
IC50 (TRPM4; ion flux, inhibitor, fluorescence): 1.2 µM

NC(=O)c1nnn(Cc2cc(Cl)c(C(=O)c3ccc(Cl)cc3)c(Cl)c2)c1N
IC50 (CACNA1I; inhibitor, FLIPR calcium; HEK293 with GCaMP6s-CAAX, Kir2.3; with: KCl at EC90): 6.8 µM

CC(=O)OC[C@H]1O[C@@H]([S-])[C@H](OC(C)=O)[C@@H](OC(C)=O)[C@@H]1OC(C)=O.CCP(CC)CC.[Au+]
IC50 (trxB (Escherichia coli, UniProt P0A9P4); enzyme activity, inhibitor, absorbance; with preincubation): 0.21 µM

OC1(c2ccc(Cl)c(C(F)(F)F)c2)CCN(CCCC(c2ccc(F)cc2)c2ccc(F)cc2)CC1
IC50 (CACNA1I; inhibitor, FLIPR calcium; HEK293 with GCaMP6s-CAAX, Kir2.3; with: KCl at EC90): 0.097 µM

COc1ccc(C(/C=C/CN2CCC[C@@H]2[C@H](O)C(=O)O)(c2ccc(OC)cc2)c2ccc(OC)cc2)cc1
IC50 (SLC6A11 (Homo sapiens, UniProt P48066); GABA uptake, inhibitor; HEK-293T; 30 min preincubation): 4.5 µM

CC[C@H](C)[C@H](NC(=O)[C@H](Cc1ccc(O)cc1)NC(=O)[C@@H](NC(=O)[C@H](CCCNC(=N)N)NC(=O)[C@@H](N)CC(=O)O)C(C)C)C(=O)N[C@@H](Cc1c[nH]cn1)C(=O)N1CCC[C@H]1C(=O)N[C@@H](Cc1ccccc1)C(=O)N[C@@H](Cc1c[nH]cn1)C(=O)O
IC50 (Neurolysin, mitochondrial (Rattus norvegicus, UniProt P42676); radioligand binding; rat, brain membranes): 7 µM

O=C(NCCCCCCCn1ccc2ccc(F)cc21)OC(C(F)(F)F)C(F)(F)F
IC50 (MGLL; enzyme activity, inhibitor): 8.3 µM

Cc1ccc(NC(=O)Nc2cccc(-c3nnc(C4CCCCC4)o3)c2)cc1
IC50 (α-amylase; enzyme activity, inhibitor): 5.29 µM

Cc1nn(C)c2nc(=O)n(C)c(=O)c-2[n+]1[O-]
IC50 (P4HB (Homo sapiens, UniProt P07237); enzyme activity, inhibitor, absorbance): 6.55 µM

C[C@H](NC(=O)C[C@H](CC(=O)NC(C)(C)C)NC(=O)CCc1ccccc1)C(=O)NCc1cccc2ccccc12
IC50 (Proteasome component C5/PSMB5 (Homo sapiens, UniProt P20618+P28074); chymotrypsin-like activity, inhibitor; with: suc-LLVY-AMC): > 100 µM

C=CC(C)(C)c1cc2cc(-c3ccc(O)cc3O)c(=O)oc2cc1O
IC50 (RELA (Homo sapiens, UniProt Q04206); NF-κB activity, inhibitor): 0.06 µM

O=C(Nc1cc(F)c(Cl)c(F)c1)c1cc(S(=O)(=O)N2CCOCC2)c(Cl)cc1Cl
IC50 (LPAR2 (Homo sapiens, UniProt Q9HBW0); Ca2+ mobilization, antagonist; MEF; with: LPA at EC50): > 100 µM

O=P(O)(O)OC[C@H](O)CO
IC50 (Intelectin-1 (ITLN1, Homo sapiens, UniProt Q8WWA0); binding, competitor, biolayer interferometry; with: human intelectin-1 binding immobilised β-Galf): 2100 µM

CC(C)Oc1ccc(-c2c[nH]cc2C(=O)N(C)CCN)cc1
IC50 (PRMT8 (Homo sapiens, UniProt Q9NR22); enzyme activity, scintillation proximity; with: 3H-SAM): > 10 µM

CC(C)(C)c1ccc(S(=O)(=O)Nc2cccc(-c3nnc(C4CCCCC4)o3)c2)cc1
IC50 (α-amylase; enzyme activity, inhibitor): 5.56 µM

O=c1c(O)c(-c2ccc(O)cc2)oc2cc(O)cc(O)c12
IC50 (Tpo; tyrosine iodination, LC-MS/MS; rat thyroid microsomes; with: KI 300 µM, H2O2 40 µM): 6.58 µM

O=C(O)/C(O)=C/C(=O)c1cn(Cc2ccc(F)cc2)c2cc(Cl)c(Cl)cc2c1=O
IC50 (gag-pol integrase; 3'-processing, inhibitor, gel-based; with: Mg2+): 34 µM

CCOC(=O)C=CC(CC1CCNC1=O)NC(=O)C(Cc1ccc(F)cc1)NC(=O)C(N)Cc1ccccc1 (stereo not drawn)
IC50 (Replicase polyprotein 1ab, main protease (rep, Severe acute respiratory syndrome coronavirus 2, UniProt P0DTD1); enzyme activity, inhibitor): 10 µM

O=C(O)/C=C/c1ccc(O)c(O)c1
IC50 (firefly luciferase; ADP-Glo ADP processing, luminescence counter-screen; cell-free, no kinase; up to 77 µM, with: ADP 1.25 µM, ATP 11.25 µM): no inhibition

O=C(/C=C/c1ccc(O)cc1)CC(=O)/C=C/c1ccc(O)cc1
IC50 (HSD3B2 (Homo sapiens, UniProt P26439); enzyme activity, inhibitor; KGN cell homogenate; lower bound from 100 µM screen, with: pregnenolone): < 100 µM

CCCC[C@H](NC(=O)[C@H](CO)NC(=O)[C@H](Cc1ccc(O)cc1)NC(=O)[C@H](CO)NC(C)=O)C(=O)N[C@@H](CCC(=O)O)C(=O)N[C@@H](Cc1c[nH]cn1)C(=O)N[C@H](Cc1ccccc1)C(=O)N[C@@H](CCCNC(=N)N)C(=O)N[C@@H](Cc1c[nH]c2ccccc12)C(=O)NCC(=O)N[C@@H](CCCCN)C(=O)N[C@@H](C)C(=O)N[C@H](C(N)=O)C(C)C
EC50 (Melanocortin receptor 5): 0.00018 ± 3e-05 µM

COc1cc(CCC(=O)CC(=O)CCc2ccc(O)c(OC)c2)ccc1O
IC50 (Tpo; enzyme activity, inhibitor, LC-MS/MS, item: monoiodotyrosine; rat thyroid microsomes; with: L-tyrosine substrate): 1.67 µM and 1.32 µM

O=C(O)c1cc(/N=N/c2ccc(S(=O)(=O)Nc3ccccn3)cc2)ccc1O
Cmax (Abcg2 (Rattus norvegicus, UniProt Q80W57); substrate; Sprague-Dawley rat, male, plasma; oral, 2 mg/kg, with: 3,6,3',4'-tetramethoxyflavone 5 mg/kg): 162 ± 19 ng/mL

O=S(=O)(NCCNCC=Cc1ccc(Br)cc1)c1cccc2cnccc12
IC50 (cGMP-dependent protein kinase 1, isoform alpha (PRKG1, Bos taurus, UniProt P00516); kinase activity, inhibitor, radiometric; with: ATP 100 µM and peptide 11 µM and cGMP): 0.055 µM

Cn1ncc(Nc2ccc3c(c2)CCN(CCCCCNC(=O)COc2cccc4c2C(=O)N(C2CCC(=O)NC2=O)C4=O)C3)c(Cl)c1=O (stereo not drawn)
IC50 (Bromodomain-containing protein 9, bromodomain (BRD9, Homo sapiens, UniProt Q9H8M2); binding, AlphaScreen; bromodomain, with: H4 acetylated peptide, 100 nM): 0.021 µM

C=C(C)CCOP(=O)(O)OP(=O)(O)OP(=O)(O)OC[C@H]1O[C@@H](n2cnc3c(N)ncnc32)[C@H](O)[C@@H]1O
IC50 (MAP3K12 (Homo sapiens, UniProt Q12852); enzyme activity, inhibitor, HotSpot kinase; with: ATP 1 µM): 3.4 µM

Oc1ccc(/C=C/c2cc(O)cc(O)c2)cc1
IC50 (Tpo; tyrosine iodination, LC-MS/MS; rat thyroid microsomes; with: KI 300 µM, H2O2 40 µM): 0.64 µM

O=c1cc(-c2ccccc2)oc2cc(O)c(O)c(O)c12
IC50 (lipoxygenase; enzyme activity, inhibitor; pH 8.0, 25 °C, with: linoleic acid): 22.2 ± 0.09 µM

CC(=O)Oc1cc(-c2coc3cc(OC(C)=O)c(OC(C)=O)c(OC(C)=O)c3c2=O)cc(OC(C)=O)c1OC(C)=O
IC50 (firefly luciferase; luminescence signal, luminescence counter-screen; cell-free, after ADP processing; up to 77 µM, with: ADP 1.25 µM, ATP 11.25 µM): no inhibition

CCOC(=O)/C(O)=C/C(=O)c1cn(Cc2ccc(F)cc2)c2ccccc2c1=O
IC50 (gag-pol integrase; strand transfer, inhibitor, gel-based; with: Mg2+): 0.79 µM

N#Cc1ccc2c(ccn2CC2CCN(C(=O)OC(C(F)(F)F)C(F)(F)F)CC2)c1
IC50 (MGLL; enzyme activity, inhibitor): 0.41 µM

Cc1ncc(Br)c(C(=O)N[C@@H](CCC(=O)O)C(=O)N[C@@H](Cc2ccc3ccccc3c2)C(=O)N[C@@H](CC(C)C)C(=O)NC2CC2c2ccccc2)n1 (stereo partly drawn)
IC50 (APC (Homo sapiens, UniProt P25054); ligand displacement, FP): 3.93 µM

Nc1ncnc2c1ncn2[C@@H]1O[C@H](COP(=O)(O)OP(=O)(O)O)[C@@H](O)[C@H]1O
Kd (ATP1A1 (Sus scrofa, UniProt P05024); binding, radioligand equilibrium binding; membranes; pH 7.7, 0 °C, with: NO3- 109 mM): 3.23 ± 0.05 µM

CCCC[C@H](NC(=O)[C@H](C)NC(=O)[C@H](Cc1ccc(O)cc1)NC(=O)[C@H](CO)NC(C)=O)C(=O)N[C@@H](CCC(=O)O)C(=O)N[C@@H](Cc1c[nH]cn1)C(=O)N[C@H](Cc1ccccc1)C(=O)N[C@@H](CCCNC(=N)N)C(=O)N[C@@H](Cc1c[nH]c2ccccc12)C(=O)NCC(=O)N[C@@H](CCCCN)C(=O)N1CCC[C@H]1C(=O)N[C@H](C(N)=O)C(C)C
EC50 (Melanocortin receptor 5): 0.00014 ± 9e-06 µM

O=C(COc1cc([N+](=O)[O-])ccc1Cl)Nc1cc(Cl)ccc1C(=O)O
IC50 (TRPM4; ion flux, inhibitor, fluorescence): 2.6 µM

Nc1ncnc2nc[nH]c12
IC50 (Nucleoside transporter 1 (Plasmodium vivax, UniProt A5K8B0); adenosine uptake, inhibitor; yeast expressing Nucleoside transporter 1; 15 min, with: [3H]adenosine 50 nM): 278 µM

C#C[C@]1(OC(C)=O)CC[C@H]2[C@@H]3CCC4=CC(=NO)CC[C@@H]4[C@H]3CC[C@@]21CC (mixture of isomers)
IC50 (Organic solute transporter subunit alpha, with OSTβ (SLC51A, Homo sapiens, UniProt Q86UW1); DHEAS uptake, inhibitor; Flp-In 293 overexpressing OSTα/β; 30 s, with: DHEAS 4 µM): > 200 µM

CC12CC3CC(C)(C1)CC(Nc1c(Nc4ccc(C(=O)N5CCC[C@H](C(=O)NCCCC(=O)NO)C5)cc4F)c(=O)c1=O)(C3)C2
IC50 (EPHX2; enzyme activity, inhibitor, fluorescence): 0.269 µM

Nc1ncnc2c1ncn2[C@@H]1O[C@H](COP(=O)(O)OP(=O)(O)O)[C@@H](O)[C@H]1O
Ki (Lrrk2 (Mus musculus, UniProt Q5S006); enzyme activity, inhibitor, TR-FRET; Ki,e, with: ATP varied, PLK-peptide substrate): 20 ± 3 µM

Excerpt of the above:
CCN(CC)CC1CCN(c2ncc3ncnc(Nc4ccc(F)c(Cl)c4)c3n2)CC1
IC50 (SRC (Homo sapiens, UniProt P12931); enzyme activity, inhibitor, ADP detection): > 10 µM

C=C(C)CCOP(=O)(O)OP(=O)(O)OP(=O)(O)OC[C@H]1O[C@@H](n2cnc3c(N)ncnc32)[C@H](O)[C@@H]1O
IC50 (MAP3K12 (Homo sapiens, UniProt Q12852); enzyme activity, inhibitor, HotSpot kinase; with: ATP 1 µM): 3.4 µM

Cc1nn(C)c2nc(=O)n(C)c(=O)c-2[n+]1[O-]
IC50 (P4HB (Homo sapiens, UniProt P07237); enzyme activity, inhibitor, absorbance): 6.55 µM

CCOC(=O)C=CC(CC1CCNC1=O)NC(=O)C(Cc1ccc(F)cc1)NC(=O)C(N)Cc1ccccc1 (stereo not drawn)
IC50 (Replicase polyprotein 1ab, main protease (rep, Severe acute respiratory syndrome coronavirus 2, UniProt P0DTD1); enzyme activity, inhibitor): 10 µM

CC(C)Oc1ccc(-c2c[nH]cc2C(=O)N(C)CCN)cc1
IC50 (PRMT8 (Homo sapiens, UniProt Q9NR22); enzyme activity, scintillation proximity; with: 3H-SAM): > 10 µM

O=C(/C=C/c1ccc(O)cc1)CC(=O)/C=C/c1ccc(O)cc1
IC50 (HSD3B2 (Homo sapiens, UniProt P26439); enzyme activity, inhibitor; KGN cell homogenate; lower bound from 100 µM screen, with: pregnenolone): < 100 µM
